Measured values collected from several papers.
Numbered parts are unrelated; each lists some results of a single study. Positions count from the first letter of the parent shown.

Series 1
Target: Centromere-binding protein 1, full length, N-terminal tag (CBF1, Saccharomyces cerevisiae, UniProt P17106, residues 1-351)
Chain of UniProt P17106 (whole entry, looked up): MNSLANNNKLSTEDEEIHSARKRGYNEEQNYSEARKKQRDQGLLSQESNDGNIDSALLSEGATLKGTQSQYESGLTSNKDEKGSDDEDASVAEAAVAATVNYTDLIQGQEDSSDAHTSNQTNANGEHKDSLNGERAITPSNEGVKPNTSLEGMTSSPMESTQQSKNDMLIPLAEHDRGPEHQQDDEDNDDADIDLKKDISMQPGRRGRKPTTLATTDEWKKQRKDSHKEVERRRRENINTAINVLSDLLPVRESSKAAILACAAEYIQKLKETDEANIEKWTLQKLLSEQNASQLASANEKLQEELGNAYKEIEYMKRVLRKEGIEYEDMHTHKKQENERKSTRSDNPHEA
Technique: protein-binding microarray
Molecule type: double-stranded DNA, one strand shown
Matrix: in vitro
Concentration: 0.8 µM
Setting: whole 60-bp probe, no competitor
Direction: higher = stronger binding
Measurement: fluorescence intensity
CCTAACTACTATATTCACGTTCGATAGCTTCGTACAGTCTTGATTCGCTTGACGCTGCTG: 547 a.u.
GAAGGCCTCTTTTCTGACGTGAATGTCACATGTTAGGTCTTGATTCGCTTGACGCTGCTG: 2880 a.u.
GAACCACCAGATTATCACGCTATAAATTTTAAATAGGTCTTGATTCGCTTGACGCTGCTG: 682 a.u.
GAACTTCTCCATTTTCACGTGCTAAAAAAGTTCTAGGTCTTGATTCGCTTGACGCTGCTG: 7560 a.u.
CCTAACTACTATATGCACGTGACATAGCTTCGTACAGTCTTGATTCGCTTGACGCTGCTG: 18100 a.u.
CTACTCTCACCTCGTGATGTTACGAACGCCACGTTCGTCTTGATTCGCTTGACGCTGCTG: 2400 a.u.
CTAAAGAAACGAATCCACCTGATTGCAGCTGTATTCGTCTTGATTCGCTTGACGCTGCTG: 620 a.u.
CTAATTGGGCTCTATCACGATACTCCATTTAACTTCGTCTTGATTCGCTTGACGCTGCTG: 722 a.u.
CTAATTGAATAACCTCAGTCACCTTGTGCAAGATTCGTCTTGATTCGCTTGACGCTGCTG: 540 a.u.
CTAAGTAGCCGTTTCCACGTTTTAACGGCTTGTTTCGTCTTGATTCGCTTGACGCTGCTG: 461 a.u.
GAAAGGGCATTATGTAGCATCACCCGGAAGAACTAGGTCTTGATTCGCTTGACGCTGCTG: 508 a.u.
GAATGCAGGTAGAATCTGATGAATCCTGGCACGTAGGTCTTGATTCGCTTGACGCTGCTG: 517 a.u.
GAACTTCCATTAAGTCAGATGACTGTTTCTCAATAGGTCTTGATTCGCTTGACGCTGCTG: 2020 a.u.
CCTAACTACTATATACACGTGGAATAGCTTCGTACAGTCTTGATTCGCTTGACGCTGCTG: 1810 a.u.
GAACCAGTGATGAAGCACCTGATTCAACTGCCGTAGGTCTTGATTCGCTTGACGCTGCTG: 1080 a.u.
TGTACGAAGCTATATCAGGTGAATATAGTAGTTAGGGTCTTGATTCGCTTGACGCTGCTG: 696 a.u.
CTAATTATCATATAAGACGTGACAAGATGACATTTCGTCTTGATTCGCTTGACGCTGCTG: 711 a.u.
GAATGTTCCTCGATTCACGTGCTCAGTATCTTGTAGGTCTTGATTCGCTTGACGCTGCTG: 7110 a.u.
CTAAAGTAGTTGGATCAGCTGAAGTAGTTTGAATTCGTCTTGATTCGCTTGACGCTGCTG: 551 a.u.

Series 2
Target: CCND1, cyclin fold, Cln2 fusion (human)
Technique: yeast growth competition, sequencing
Matrix: yeast
Setting: strong parent motif
Relative to: not given
Direction: higher = stronger binding
Measurement: normalised enrichment score
Parent: RBL1 docking peptide (human); GSAKRRLFGEDPP; partner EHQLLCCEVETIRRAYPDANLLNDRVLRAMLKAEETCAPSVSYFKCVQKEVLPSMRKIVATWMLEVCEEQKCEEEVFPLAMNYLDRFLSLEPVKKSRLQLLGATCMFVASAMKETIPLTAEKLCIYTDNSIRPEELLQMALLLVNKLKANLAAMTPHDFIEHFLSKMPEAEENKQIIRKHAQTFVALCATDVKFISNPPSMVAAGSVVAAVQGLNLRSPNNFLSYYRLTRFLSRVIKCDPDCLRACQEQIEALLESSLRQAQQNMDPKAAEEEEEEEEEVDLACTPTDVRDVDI
A3T: 1.08
S2M: 0.774
D11W: 0.812
E10K: 0.847
G9R: 1.37
R6F: 0.566
D11E: 2.33
P12M: 1.62
K4Y: 0.048
R5K F8L: 0.14
F8S: 0.358
P12L: 1.83
D11A: 1.24
S2G: 1.96
E10G: 0.9
S2D: 0.564
A3Y: -0.0327
D11F: 0.532
D11S: 2.48
F8Q: 0.14
R6S: 0.834
P12C: 1.9
L7W: 0.384
P13I: 1.64
D11Q: 1.1

Series 3
Target: ABI1, truncated, D143A, DHFR fusion (Arabidopsis thaliana)
Technique: DHFR PCA, deep sequencing
Matrix: yeast
Setting: methotrexate growth selection, single substitutions
Added: (+)-ABA 17 µM
Relative to: wild-type fitted maximum
Direction: higher = stronger binding
Measurement: relative binding score
Parent: PYL1, truncated, DHFR fusion (Arabidopsis thaliana); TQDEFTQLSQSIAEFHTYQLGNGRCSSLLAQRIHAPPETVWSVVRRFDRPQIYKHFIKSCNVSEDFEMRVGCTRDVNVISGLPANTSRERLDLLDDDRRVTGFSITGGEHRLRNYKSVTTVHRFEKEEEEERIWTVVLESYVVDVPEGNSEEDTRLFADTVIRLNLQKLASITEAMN; partner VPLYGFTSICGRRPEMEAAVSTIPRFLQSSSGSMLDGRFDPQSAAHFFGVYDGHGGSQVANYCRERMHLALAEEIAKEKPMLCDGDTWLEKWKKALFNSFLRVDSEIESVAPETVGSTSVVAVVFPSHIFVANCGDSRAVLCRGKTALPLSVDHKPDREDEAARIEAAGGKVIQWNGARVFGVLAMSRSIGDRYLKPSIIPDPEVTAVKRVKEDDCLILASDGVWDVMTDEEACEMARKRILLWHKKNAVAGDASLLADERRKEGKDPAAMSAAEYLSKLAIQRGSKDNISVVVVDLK
Q31V: 44%
I79L: 41.9%
I12G: 0.17%
F56H: 1.57%
E89N: 7.66%
E128V: 76.2%
A84V: 10.1%
D95N: 65.8%
A170N: 21.5%
V161M: 39.6%
T17G: 35%
Q19I: 75.9%
G107F: -0.783%
G107Y: 12.3%
N149V: 24%
E128C: 89.2%
Q10Y: 61.2%
V76I: 95.6%
K58L: 46.8%
R113E: 74%

Series 4
Target: UBE2C UBC core domain (UniProt O00762)
Chain of UniProt O00762 (whole entry, looked up): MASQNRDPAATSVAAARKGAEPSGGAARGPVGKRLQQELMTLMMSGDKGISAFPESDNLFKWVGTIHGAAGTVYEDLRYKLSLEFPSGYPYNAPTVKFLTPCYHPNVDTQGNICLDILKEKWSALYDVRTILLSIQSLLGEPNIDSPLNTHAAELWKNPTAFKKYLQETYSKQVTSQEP
Technique: yeast two-hybrid
Matrix: yeast
Setting: mostly zero background
Relative to: not given
Direction: higher = stronger interaction
Measurement: lacZ reporter activity
B1: MARCHF2 RING domain (UniProt Q9P0N8); chain RLLSTVIRALDTPSDGPFCRICHEGANGECLLSPCGCTGTLGAVHKSCLEKWLSSSNTSYCELCHTEFAVEKRPRPLTEWL
B2: NHLRC1 RING domain (UniProt Q6VVB1); chain MREAEISLLECKVCFEKFGHRQQRRPRNLSCGHVVCLACVAALAHPRTLALECPFCRRACRGCDTSD
B3: TRIM47 RING domain (UniProt Q96LD4); chain MDGSGPFSCPICLEPLREPVTLPCGHNFCLACLGALWPHRGASGAGGPGGAARCPLCQEPFPDGLQLR
B4: RNF32 RING domain (UniProt Q9H0A6); chain VQALRRETHECSICLAPLSAAGGQRVGAGRRSREMALLSCSHVFHHACLLALEEFSVGDRPPFHACPLCRSCYQKKILEC
B5: RNF130 RING domain (UniProt Q86XS8); chain DKETDPDFDHCAVCIESYKQNDVVRILPCKHVFHKSCVDPWLSEHCTCPMCKLNILKALGIV
B6: TRIM28 RING domain (UniProt Q13263); chain GAEALELLEHCGVCRERLRPEREPRLLPCLHSACSACLGPAAPAAANSSGDGGAAGDGTVVDCPVCKQQCFSKDIVE
B7: MDM2 RING domain (UniProt Q00987); chain TQDKEESVESSLPLNAIEPCVICQGRPKNGCIVHGKTGHLMACFTCAKKLKKRNKPCPVCRQPIQMIVLTYFP
B8: TRIM2 RING domain (UniProt Q9C040); chain VRQIDKQFLICSICLERYKNPKVLPCLHTFCERCLQNYIPAHSLTLSCPVCRQTSILPEKGV
B9: RFPL3 RING domain (UniProt O75679); chain MAALFQEASSCPVCSDYLEKPMSLECGCTVCLKCINSLQKEPHGEDLLCCCCSMVSQRNKIRP
B10: UBE4B RING domain (UniProt O95155); chain KNARAEIDYSDAPDEFRDPLMDTLMTDPVRLPSGTIMDRSIILRHLLNSPTDPFNRQTLTESMLEPVPELKEQIQAWMREKQNSDH
EIKDYKARLTCPCCNMRKKDAVLTKCFHVFCFECVKTRYDTRQRKCPKCNAAFGANDFHR (RNF20 RING domain (UniProt Q5VTR2)): 0
B1 (MARCHF2 RING domain): 0
B2 (NHLRC1 RING domain): 0
GSEEEEIPFRCFICRQAFQNPVVTKCRHYFCESCALEHFRATPRCYICDQPTGGIFNPA (RNF113B RING domain (UniProt Q8IZP6)): 0
B3 (TRIM47 RING domain): 0
B4 (RNF32 RING domain): 0
B5 (RNF130 RING domain): 0
B6 (TRIM28 RING domain): 0
EDVLSKDAGECAICLEELQQGDTIARLPCLCIYHKGCIDEWFEVNRSCPEHPSD (ZNRF2 RING domain (UniProt Q8NHG8)): 0
B7 (MDM2 RING domain): 0
PLRRLQEEKLCKICMDRHIAVVFIPCGHLVTCKQCAEAVDRCPMCSAVIDFKQRVF (BIRC8 RING domain (UniProt Q96P09)): 0
B8 (TRIM2 RING domain): 0
B9 (RFPL3 RING domain): 0
B10 (UBE4B RING domain): 0
AAQLLEEKLTCAICLGLYQDPVTLPCGHNFCGACIRDWWDRCGKACPECREPFPDGAELR (TRIM65 RING domain (UniProt Q6PJ69)): 0

Series 5
Target: Interferon regulatory factor 5, full length, phosphomimetic (IRF5, Homo sapiens, UniProt Q13568-2, residues 1-514, K96S/S451D/S453D/S456D/S462D)
Technique: protein-binding microarray
Molecule type: double-stranded DNA, one strand shown
Matrix: in vitro
Concentration: 250 nM
Setting: 60-bp whole probe
Added: salmon DNA 0.4 mg/ml
Relative to: random background probes
Direction: higher = stronger binding
Measurement: log fluorescence
Constant ends, left off below: GCCTAGCAC … GTCTTGATTCGCTTGACGCTGCTG
GACGAACTGAGACCGGAGACGTGCTAG: -0.414 z-score
GACGGTATCGACACAGGGGACGTGCTA: 2 z-score
TCAGTTTTCATTTTCTGACTGTGCTAG: 3.1 z-score
GTCGTCACTGCCATAATGCGGTGCTAG: -0.33 z-score
TTATGTTTCGACTTTCGGTTAGTGCTA: 10.9 z-score
ACTCAGTAACATTATTGTAGGTGCTAG: 0.111 z-score
TTAGGTTTCCTACCGCTTTAGTGCTAG: 0.377 z-score
GAAGGTATCGGGTATCGGGACGTGCTA: 2.86 z-score
TCACATCTAGTTCTGCTACTGTGCTAG: 0.273 z-score
AGCACTCTTCTTTTTTTTCTGTGCTAG: 0.943 z-score
GACGGACTGGGCCTCGGGACGTGCTAG: -0.625 z-score
AACGGTCTCGGTTTCGGGACGTGCTAG: 3.71 z-score
GACGGGTTCGGTTCCGGGACGTGCTAG: -0.225 z-score
TTAGGTTTCGTTTCCCTTTAGTGCTAG: 8.06 z-score
TCATCTTGCAGTATGGAACTGTGCTAG: 0.0692 z-score
GACGGAGTGGGTTTCGGGACGTGCTAG: 2.15 z-score
TTAGGTCTCGCTTTCGGTTAGTGCTAG: 8.66 z-score
GACGGACTGCTACTGCTGACGTGCTAG: -0.756 z-score
AGAGTCACCCATCTCAACAAGTGCTAG: -0.297 z-score

Repeated from above (series 3):
V161M: 39.6%
T17G: 35%
Q19I: 75.9%
G107F: -0.783%
G107Y: 12.3%
N149V: 24%
E128C: 89.2%
